Experimental data collected from several papers.
Compare with care: the assays were run in different laboratories. ± marks the error that the study gave. Ends that are not written are not given here.
B1: SACOL1063 (Staphylococcus aureus, UniProt Q5HH30); chain MFSKVNNQKMLEDCFYIRKKVFVEEQGVPEESEIDEYESESIHLIGYDNGQPVATARIRPINETTVKIERVAVMKSHRGQGMGRMLMQAVESLAKDEGFYVATMNAQCHAIPFYESLNFKMRGNIFLEEGIEHIEMTKKLTSLN
B2: enzyme (Bacillus pumilus, UniProt A8FFI9); chain EARSIAWSVDEFFKNREGTFVIQEVKEKSPWVYNKKRAKERFAPQSTFKVANALIGLQTGAVRDEYDIKYWDGVKREIDNWNRDHTLGSGMRDSVVWYYQAMARDIGEERMNHWVKAIHYGNKDISGGIDQFWLSSTLRISPIEQVRFLKQLYEETLPFDLKNMRTVKRMMVQEEEKHATLYGKTGSGSDIGWYVGFIKHEHKTYILATNIKGTGIEAKDITYRILKKYHLMEASV
UniProt O60656, sequence (whole entry, looked up): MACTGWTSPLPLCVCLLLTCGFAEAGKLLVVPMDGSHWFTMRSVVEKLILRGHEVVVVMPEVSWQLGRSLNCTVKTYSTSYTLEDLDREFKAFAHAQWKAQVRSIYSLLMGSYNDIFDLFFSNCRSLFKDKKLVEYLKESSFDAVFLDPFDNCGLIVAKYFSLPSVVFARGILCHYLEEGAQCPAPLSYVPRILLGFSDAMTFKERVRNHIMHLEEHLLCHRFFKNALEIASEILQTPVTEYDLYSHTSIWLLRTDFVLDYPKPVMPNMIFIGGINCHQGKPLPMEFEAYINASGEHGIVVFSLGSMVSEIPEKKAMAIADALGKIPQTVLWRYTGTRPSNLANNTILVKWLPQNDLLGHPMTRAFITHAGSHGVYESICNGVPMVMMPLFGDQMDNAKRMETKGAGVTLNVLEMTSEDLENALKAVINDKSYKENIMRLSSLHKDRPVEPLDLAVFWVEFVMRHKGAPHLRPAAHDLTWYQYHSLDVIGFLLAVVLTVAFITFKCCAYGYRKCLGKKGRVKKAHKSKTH
UniProt P00698, sequence (whole entry, looked up): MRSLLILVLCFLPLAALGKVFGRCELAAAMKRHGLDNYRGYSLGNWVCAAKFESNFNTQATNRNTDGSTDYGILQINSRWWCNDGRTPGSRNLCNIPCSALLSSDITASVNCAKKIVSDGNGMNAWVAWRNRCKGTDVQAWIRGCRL
UniProt O57762, sequence (whole entry, looked up): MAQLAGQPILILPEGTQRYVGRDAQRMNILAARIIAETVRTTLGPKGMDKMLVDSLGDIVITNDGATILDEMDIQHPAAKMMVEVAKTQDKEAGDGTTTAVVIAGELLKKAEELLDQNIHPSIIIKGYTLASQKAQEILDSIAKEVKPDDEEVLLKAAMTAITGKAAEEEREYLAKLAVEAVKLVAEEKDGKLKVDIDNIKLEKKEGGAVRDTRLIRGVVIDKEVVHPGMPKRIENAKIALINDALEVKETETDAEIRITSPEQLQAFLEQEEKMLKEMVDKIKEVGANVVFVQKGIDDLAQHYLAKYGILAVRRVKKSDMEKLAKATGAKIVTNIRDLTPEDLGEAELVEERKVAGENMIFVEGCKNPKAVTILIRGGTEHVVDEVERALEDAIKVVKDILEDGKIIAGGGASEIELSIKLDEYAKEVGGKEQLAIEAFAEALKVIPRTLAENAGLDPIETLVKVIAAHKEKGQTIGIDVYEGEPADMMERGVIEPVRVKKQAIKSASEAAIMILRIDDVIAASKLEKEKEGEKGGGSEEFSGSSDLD

With `B1 (SACOL1063)` the K0.5 was 419 µM (CC(=O)SCCNC(=O)CCNC(=O)[C@H](O)C(C)(C)COP(=O)(O)OP(=O)(O)OC[C@H]1O[C@@H](n2cnc3c(N)ncnc32)[C@H](O)[C@@H]1OP(=O)(O)O; steady-state kinetics; pH 8, 37 °C, together with: L-Thr 10 mM, AcCoA 0-2 mM).
For `RXRRXRRXRRXRXB (PMO conjugate)`, viability read “no effect” (pLuc705; MTT; peptide; 2 to 60 µM, 24 h, 10% serum, D-arginine variant).
`UGT1A9 (Homo sapiens, UniProt O60656)` gave a Vmax of 0.000552 µmol/min/mg (O=C(/C=C/c1ccccc1O)c1ccccc1; steady-state kinetics; pH 7.4, 37 °C).
The kcat of `B2 (enzyme)` is reported as over 0.9 s⁻¹ (CC(C)(O/N=C(\C(=O)N[C@@H]1C(=O)N2C(C(=O)[O-])=C(C[n+]3ccccc3)CS[C@H]12)c1csc(N)n1)C(=O)O; steady-state kinetics; pH 7).
`COc1cccc2c1C(=O)c1c(O)c3c(c(O)c1C2=O)C[C@@](O)(C(=O)CO)C[C@@H]3O[C@H]1C[C@H](NC(=O)[C@@H]2CCCN2C(=O)CN)[C@H](O)[C@H](C)O1` gave a Cmax of 1650 nM (mouse, E0771 tumour-bearing, heart; intravenous, 92 µmol/kg PhAc-ALGP-Dox).
`FITC-labelled amyloid β(1-40)`: permeability “increased” (bEnd.3, claudin-5 and occludin siRNA; basolateral to apical, Transwell; 10 µM, 2 h, 37 °C, 72 h after siRNA; reference: non-targeting siRNA).
With `ths (Pyrococcus horikoshii, UniProt O57762)` the melting temperature was 5 °C (LYZ, methyl-labelled (Gallus gallus, UniProt P00698); NMR thermal unfolding; reference: without hsp60, higher = more stable).
`KCNTATCATQRLANFLVHSSNNFGPILPPTNVGSNTY (Pramlintide; not fully specified (C-terminus, bridges); cysteine pairing not given here; sequence looked up)` — result for “adverse event incidence”: 7.1% (refers to: Headache; peptide, obese or overweight humans; concentration not given, ITT population).
The tissue uptake of `CC(C)[C@H](NC(=O)[C@@H]1CCCN1C(=O)[C@H](CCCNC(=N)N)NC(=O)[C@H](CS)NC(=O)[C@H](Cc1c[nH]c2ccccc12)NC(=O)[C@H](CCCNC(=N)N)NC(=O)[C@@H](Cc1ccccc1)NC(=O)[C@H](Cc1c[nH]cn1)NC(=O)[C@H](CCC(=O)O)NC(=O)[C@H](CS)NC(=O)[C@H](CS)NC(=O)[C@H](CCCCN)NC(=O)[C@@H]1CC(=O)N[C@@H](CCCNC(=N)N)C(=O)N[C@@H](C)C(=O)N[C@@H](CC(=O)O)C(=O)N[C@H](Cc2ccc(O)cc2)C(=O)N1)C(N)=O` [technetium-99m labelled] is reported as 0.37 ± 0.21 %ID/g (C57 mice, bone; intravenous, 0.037 MBq, 2 h).
`insulin degludec` gave a Cmax of 3.17 nM (ELISA; human, end-stage renal disease, serum; subcutaneous, 0.4 U/kg single dose, dosed after hemodialysis, geometric mean, non-dialysis profile).
With `protein (Sinorhizobium meliloti, UniProt Q92LZ4)` the K0.5 was 80000 µM (O=CC(=O)O; steady-state kinetics; pH 7.5, 25 °C, NaCl 150 mM, together with: NADPH 0.4 mM).
